Measurements of several laboratories.
Parts stem from different laboratories: compare values within a part only.

Set 1 — method: RNA Bind-n-Seq; form: RNA; matrix: in vitro; tested at: not given; baseline: input RNA pool; reading: higher = stronger binding
Target: RING finger protein unkempt homolog, zinc fingers 1-6, GST-SBP tag (UNK, Homo sapiens, UniProt Q9C0B0, residues 30-357)
UniProt Q9C0B0, sequence (30-357, looked up): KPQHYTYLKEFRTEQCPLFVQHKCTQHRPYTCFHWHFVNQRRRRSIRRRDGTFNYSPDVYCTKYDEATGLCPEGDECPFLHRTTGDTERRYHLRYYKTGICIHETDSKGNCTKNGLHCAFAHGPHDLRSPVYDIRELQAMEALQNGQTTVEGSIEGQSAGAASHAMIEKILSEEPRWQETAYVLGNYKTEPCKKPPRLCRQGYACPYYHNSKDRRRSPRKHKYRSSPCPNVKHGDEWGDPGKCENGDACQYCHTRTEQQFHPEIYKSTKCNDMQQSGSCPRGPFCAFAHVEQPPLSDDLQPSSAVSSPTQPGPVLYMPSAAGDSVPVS
Setting: RNA with constant flanks, human and mouse sites, ends assumed
Constant ends, left off below: GGGAGUUCUACAGUCCGACGAUC … CAACAGAGGAUUGAGCAUCA
The bound/input enrichment of `UUGAUCAAGUUUUAUAAAUGCCAUUCAUAGGAGCUGUGAUUCUGGCAAAUUAAAGUAAUUCAUAGUUUUCUGCAAUUUGAAAUAAAAGCAUUUCCAACUUCUAGAUUAUCAUUUUAUAAA` is reported as 1.71 ratio.
`CAGGAAGAUAUCGAUCCUCAGAAGGUUGCAUUUCUCCUCCACAAACAGUGGACUAUAUAUAGUUUAACUCCCUUGUAUAAAUUCUCCUAUUCUAAUCUCAAAGACUAUUCUAGACUUCUA` gave a bound/input enrichment of 1.37 ratio.
The bound/input enrichment of `ACCAAACUAUACACGUCUGCGCCCAACACAUCUCAGGGUAAAGAUAAUUCUGUCUUACUAGUUCUCAGCAGUGAUGAAAGCCAACAGUCUGAAAACAGUGAGAAUGAAGAGGAUACUUUA` is reported as 0.16 ratio.
With `UAGAUACCCCAGCGAGUUCUGACUCUGAACUAUAACUUUUUUUUUUUUUAAUGCAAAGACACUAGUCUGAUAAUAUAUACUGUAUUCCCGGAGACAUUUGUGUUACUUACCCUUGGGGGC` the bound/input enrichment was 10.8 ratio.
For `CGAGAUGAUACAAUAUACGAGGAUGAAGAUGUAAAAGAAGCCAUAAGAAGACUUCCUGAGAACCUUUAUAAUGACAGGAUGUUUCGCAUUAAGAGGGCACUGGACCUGAACUUGAAGCAU`, the bound/input enrichment was 0.204 ratio.
For `AGAAAACAACCAAAACAAUUCCAAUGAAAAUUUUAGUAACAAUUGUUUAUUUUGAGGGUAUUUGUUCAUAACAUUAAAACAAUAAAGGGCUCAUAAUAAAUAAAUAUAUUUUUGACACAA`, the bound/input enrichment was 1.99 ratio.
`AUGUACGAGCAUAAUCGAAACGUCACGUGUUUAGUUUUUAUAUGUGUGUACAUAAUUAUACAUAGAGAUAGACUUGUGUAUACACCCUUCGCGCGCACACAUACACACACUCACAUCCUC` gave a bound/input enrichment of 1.16 ratio.
`AACUCCACGUGUGUGACUAUAAAACACCCUGUGGCCAAGAGCAGAUUGCCACUUCCCUUUCUCUGAAUUACUGCUUUCCCCGGUCAUUAACGUAUGGCCACAGCAUCCUGGGGUACAGGC` gave a bound/input enrichment of 0.28 ratio.

Set 2 — method: protein binding microarray; form: double-stranded DNA, one strand shown; matrix: in vitro; tested at: not given; baseline: not given; reading: higher = stronger binding
Target: Histone acetyltransferase KAT6A, winged helix 2, GST fusion (KAT6A, Homo sapiens, UniProt Q92794, residues 85-181)
Setting: 8-mer, flanks averaged, mean of 2 arrays, mostly near background
Target sequence (chain): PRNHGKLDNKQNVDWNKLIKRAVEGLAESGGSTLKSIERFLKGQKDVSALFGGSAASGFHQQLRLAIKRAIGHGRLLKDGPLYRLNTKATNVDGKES
The E-score of `CTATTGGC` is reported as -0.0373.
The E-score of `CGATTGAG` is reported as -0.149.
For `CCAGGGGC`, the E-score was 0.0803.
For `AAATACCC`, the E-score was -0.024.
For `AACACACA`, the E-score was 0.0306.
With `ATCGCGGG` the E-score was -0.00772.
The E-score of `AGGCTTGC` is reported as -0.107.
The E-score of `ATTCCGAG` is reported as 0.16.
`AACTTTAT` has an E-score of 0.00775.
The E-score of `AACGGCCT` is reported as -0.0165.
`AAACAGAG` gave an E-score of 0.0344.
`AGGGAATG` has an E-score of -0.0131.
For `GAGAAGGC`, the E-score was 0.0894.
`CGGAAGAC` has an E-score of 0.00392.
`CCTAACTA` has an E-score of -0.0332.
The E-score of `TAACGTGA` is reported as -0.25.
`AAAGTTCT` gave an E-score of 0.043.
`AAGGATAA` has an E-score of -0.127.

Set 3 — method: protein-binding microarray; form: double-stranded DNA, one strand shown; matrix: in vitro; tested at: 940 nM top; setting: 60-bp whole probe; added: salmon DNA 0.4 mg/ml; baseline: random background probes; reading: higher = stronger binding; constant ends, left off below: GCCTAGCAC … GTCTTGATTCGCTTGACGCTGCTG
Target: Interferon regulatory factor 5, full length, phosphomimetic (IRF5, Homo sapiens, UniProt Q13568-2, residues 1-514, S451D/S453D/S456D/S462D)
Under “fitted relative affinity”, `GACGAACTGAGACTCGAGACGTGCTAG` is recorded as -0.17 z-score.
Under “fitted relative affinity”, `GACGATATCGGGTATCGATACGTGCTA` is recorded as 3.92 z-score.
`TTAGGACTGGACACTGAGTTAGTGCTA` — result for “fitted relative affinity”: -0.306 z-score.
`TTAGATATCGGGTATCGGTTAGTGCTA`: “fitted relative affinity” 3.41 z-score.
`GACGGTTTGCTACTGCTGACGTGCTAG`: “fitted relative affinity” -0.412 z-score.
Under “fitted relative affinity”, `GACGGCCTCCTTCTCCTGACGTGCTAG` is recorded as 0.105 z-score.
Under “fitted relative affinity”, `TTAGTACTGCTTCTCCTTTAGTGCTAG` is recorded as 0.669 z-score.
For `GTAGGTTTCGGGTTTCGGTTAGTGCTA`, “fitted relative affinity” read 11.1 z-score.
Under “fitted relative affinity”, `GACGGTCTCCATTTCCTGACGTGCTAG` is recorded as 0.53 z-score.
Under “fitted relative affinity”, `TTAGAATTGAGACTGGATTAGTGCTAG` is recorded as -0.107 z-score.
Under “fitted relative affinity”, `GACAGTCTCCTTCTCCTGACGTGCTAG` is recorded as 0.879 z-score.
For `TTAGTTTTCATTATTGTGTCGTGCTAG`, “fitted relative affinity” read 2.67 z-score.
For `TCAGAAATTCCTCTGAAACTGTGCTAG`, “fitted relative affinity” read -0.0171 z-score.
For `GACGATTCCAGTTTCTAGACGTGCTAG`, “fitted relative affinity” read 1.32 z-score.
`TTAGATCACAGTTTCGATTAGTGCTAG` — result for “fitted relative affinity”: 6.41 z-score.
`AGGGCAGGGAGGGGGACAGCGTGCTAG`: “fitted relative affinity” 1.96 z-score.
`CCTCACATGACTGAATGGACGTGCTAG`: “fitted relative affinity” -0.332 z-score.
`GACGGATTCGGTATCGGGACGTGCTAG`: “fitted relative affinity” 2.33 z-score.
`TTAGTTTTCGGGACTGGGTTAGTGCTA` — result for “fitted relative affinity”: 1.83 z-score.

Set 4 — method: universal PBM; form: double-stranded DNA, one strand shown; matrix: in vitro; tested at: not given; reading: higher = stronger binding
Target: Sal-like protein 4, full length isoform B (SALL4, Homo sapiens, UniProt Q9UJQ4-2, residues 1-616)
Setting: 8-mer, flanks averaged, mean of replicates
Target sequence (chain): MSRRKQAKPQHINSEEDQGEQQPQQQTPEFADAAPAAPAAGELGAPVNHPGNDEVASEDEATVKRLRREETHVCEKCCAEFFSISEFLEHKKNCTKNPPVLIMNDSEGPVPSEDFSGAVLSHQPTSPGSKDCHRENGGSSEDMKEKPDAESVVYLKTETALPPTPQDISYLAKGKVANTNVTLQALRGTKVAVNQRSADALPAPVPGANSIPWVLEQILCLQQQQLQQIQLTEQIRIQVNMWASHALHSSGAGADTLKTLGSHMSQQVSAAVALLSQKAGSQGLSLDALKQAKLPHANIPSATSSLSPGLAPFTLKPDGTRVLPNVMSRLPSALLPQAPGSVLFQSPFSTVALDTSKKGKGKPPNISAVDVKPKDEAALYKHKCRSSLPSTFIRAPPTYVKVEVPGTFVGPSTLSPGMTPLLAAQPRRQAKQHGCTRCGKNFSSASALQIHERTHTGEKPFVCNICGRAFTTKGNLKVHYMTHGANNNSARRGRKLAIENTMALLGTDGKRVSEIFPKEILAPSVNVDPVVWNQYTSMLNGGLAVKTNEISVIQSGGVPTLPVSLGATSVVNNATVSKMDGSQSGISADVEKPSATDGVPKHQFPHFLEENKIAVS
For `AGGCATGC`, the E-score was -0.019.
For `ACGCTTTA`, the E-score was 0.0355.
`ACATCAAT` has an E-score of 0.269.
`AGCCATTC` has an E-score of -0.148.
For `CGCGCTAG`, the E-score was -0.159.
The E-score of `ACGTCGCG` is reported as -0.152.
`ATCATGTG` gave an E-score of 0.155.
`AAGCACCG` has an E-score of -0.25.
`GCTGTATA` gave an E-score of 0.195.
The E-score of `ACGGGTTA` is reported as 0.0646.
For `TAAGTCAA`, the E-score was 0.196.
`ACGGGAAG` has an E-score of -0.026.
With `GGTGCGGA` the E-score was -0.164.
The E-score of `ACCCAAAT` is reported as 0.0996.
`ATGCTAGC` gave an E-score of 0.125.
With `AGTCCGTA` the E-score was -0.0225.
The E-score of `AAAGTTTC` is reported as 0.106.
`GACTTACC` gave an E-score of -0.0624.
`ATACCAAG` gave an E-score of 0.135.
With `AGATTGCT` the E-score was 0.0614.
`AAATGACA` gave an E-score of 0.196.
With `CGGGTCAA` the E-score was -0.27.
The E-score of `AATTCACG` is reported as 0.11.
`GTTCGTTA` has an E-score of 0.122.
For `CTATCGAC`, the E-score was -0.136.

For quick reference, copied from above (set 4):
For `CGCGCTAG`, the E-score was -0.159.
The E-score of `ACGTCGCG` is reported as -0.152.
`ATCATGTG` gave an E-score of 0.155.
`AAGCACCG` has an E-score of -0.25.
`GCTGTATA` gave an E-score of 0.195.
The E-score of `ACGGGTTA` is reported as 0.0646.
For `TAAGTCAA`, the E-score was 0.196.
`ACGGGAAG` has an E-score of -0.026.
